Results collected from several papers.
Numbered parts are unrelated; each lists some results of a single study.

Sample 1
Target: RNA binding protein fox-1 homolog 2, RRM domain, GST-SBP tag (RBFOX2, Homo sapiens, UniProt O43251-10, residues 100-194)
Technique: RNA Bind-n-Seq
Molecule type: RNA
Sample: in vitro
Concentration: 365 nM
Notes: natural RNA segment, single round, ends assumed
Reference: no-protein control
Reading: higher = stronger binding
Measurement: RBNS enrichment (R)
Shared flanks, not repeated: GGGAGUUCUACAGUCCGACGAUC … UGGAAUUCUCGGGUGCCAA
Residues (chain): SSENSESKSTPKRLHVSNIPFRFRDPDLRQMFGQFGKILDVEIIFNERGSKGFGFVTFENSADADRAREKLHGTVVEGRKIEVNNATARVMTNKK
Strand = CAUCCAGUGAACUCUGCUCUUCCAAGUGUGUUCAUGUAUGUGCUAGAUAUAUUAGCACAGCCUGCCUUCUGCUGCACAACGCCUUAGAGACCCGGCCUUUCAAUGAGCUU; value = 0.545
Strand = GCAUGGACCAGCACCACUGCCUGGCCAUAACUUCAGUGUCUCCUAACUGGGUGUGCUUUAUAGCUCCAGCUUCCUGGGAGGAGCAGUGGAGCCAGCUCCCUCACCCCUUC; value = 0.415
Strand = UACCCCACAGCUCUGUUCCAUGUAAGUUGCCAACAGUUUCACUGAACAGUGGGGUAUGUGAUGGUUUUGGCAUGACAUCUUCAGUAUGAGGGGGACAGUUUGACUUCACU; value = 0.593
Strand = GUUUGUCCCUUCUACAGGCAUGAGGAAUCUGGGAGGCCCUGAGACAGGGAUUGUGCUUCAUUCCAAUCUAUUGCUUCACCAUGGCCUUAUGAGGCAGGUGAGAGAUGUUU; value = 23.4
Strand = AUUUGUCCUUUUCUUACUGGCAGGUAGUUGCUCACAUAUUCAUCUCUUGCCAAAUAAGGGCCUGCUCCUCGUGGGAGACCACAGGUGUACAGUCGGUGGCCUUGUACCUG; value = 0.427
Strand = UGAUGGUCAGUGAGGAAGCUGGCCAGCAACUGGAUCCUCCAGACCCCUCUGCUUCAGGAAGGCCCUAUAGGGCCCACCUUCCCGCCCUGCCCACCUGGCCUUUGCACUUC; value = 0.351
Strand = AUGGCAUGUCUUUCUUUUUCUGCCAGAAAAUCUAUUUUAAGAAACCAGAAUAGUCAACAGUGUUCAAAAGAAUUGACUAGUUAUCCCUGAGGCCCUUUCAAACAUGAUCA; value = 0.602
Strand = GGGGGCAAGAAGACCAUGUUCCCUGCCUGUUCCCCCAGCUGCUUCUCCCAUCUUUUCUCUCUGUUCUCAGCUCCCCUGUCCCCUCCCUCGGCUCUAGACUUGGGGGAGGG; value = 1.21

Sample 2
Target: Histone acetyltransferase KAT6A, winged helix 1, GST fusion (KAT6A, Homo sapiens, UniProt Q92794, residues 1-85)
Technique: protein binding microarray
Molecule type: double-stranded DNA, one strand shown
Sample: in vitro
Concentration: not given
Notes: 8-mer, flanks averaged, mean of 2 arrays, mostly near background
Reference: not given
Reading: higher = stronger binding
Measurement: E-score
Target sequence (chain): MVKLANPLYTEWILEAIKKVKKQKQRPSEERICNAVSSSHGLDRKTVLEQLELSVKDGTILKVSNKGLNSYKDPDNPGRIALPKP
Strand = ATGGTGAC; value = -0.163
Strand = GACGCCGC; value = 0.436
Strand = GGCGGTGA; value = 0.266
Strand = AGGGACAC; value = -0.111
Strand = GCCGCCCA; value = 0.337
Strand = CGAATGAA; value = -0.121
Strand = GGTTATAC; value = 0.0445
Strand = CGACCTCC; value = -0.000435
Strand = GTAGTATA; value = 0.121
Strand = ACCGTGTC; value = 0.202
Strand = CGCCTAGC; value = 0.288
Strand = AATTACGA; value = -0.102
Strand = CTATGCAG; value = -0.185
Strand = CCACGCCA; value = -0.225
Strand = GACGCACC; value = 0.0689
Strand = GTAAGTAC; value = 0.201
Strand = ATAGACCG; value = 0.0258
Strand = CCGCTGCC; value = 0.264
Strand = CAGAAGAA; value = -0.144
Strand = CATCCACC; value = 0.0061
Strand = AAGGTGGG; value = -0.226
Strand = CTAGCAAA; value = -0.147
Strand = ATACCGCA; value = 0.3
Strand = AGATGCAC; value = -0.0704
Strand = CCAGGCGC; value = 0.18

Sample 3
Target: Interferon regulatory factor 7, full length, phosphomimetic (IRF7, Homo sapiens, UniProt Q92985, residues 1-503, S471D/S472D/S475D/S476D/S477D/S483D/S484D/S487D)
Sequence of UniProt Q92985 (whole entry, unmodified, looked up): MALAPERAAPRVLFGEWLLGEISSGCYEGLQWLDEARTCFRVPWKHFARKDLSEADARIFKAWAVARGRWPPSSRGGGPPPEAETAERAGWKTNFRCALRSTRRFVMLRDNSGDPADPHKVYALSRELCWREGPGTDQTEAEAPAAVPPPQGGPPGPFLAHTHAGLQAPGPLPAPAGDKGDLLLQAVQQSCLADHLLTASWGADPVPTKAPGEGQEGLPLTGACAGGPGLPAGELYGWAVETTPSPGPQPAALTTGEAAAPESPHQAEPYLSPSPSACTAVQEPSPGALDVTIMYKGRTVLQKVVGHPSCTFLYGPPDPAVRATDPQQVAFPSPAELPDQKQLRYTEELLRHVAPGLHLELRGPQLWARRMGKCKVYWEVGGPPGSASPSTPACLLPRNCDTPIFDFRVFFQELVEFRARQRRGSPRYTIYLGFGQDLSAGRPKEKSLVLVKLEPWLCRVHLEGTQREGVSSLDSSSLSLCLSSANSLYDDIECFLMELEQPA
Technique: protein-binding microarray
Molecule type: double-stranded DNA, one strand shown
Sample: in vitro
Concentration: 2200 nM top
Notes: 60-bp whole probe
Added: salmon DNA 0.4 mg/ml
Reference: random background probes
Reading: higher = stronger binding
Measurement: fitted relative affinity
Shared flanks, not repeated: GCCTAGCAC … GTCTTGATTCGCTTGACGCTGCTG
Strand = CTCTACATGTGTTTAAGAATGTGCTAG; value = 0.848 z-score
Strand = GACGGTATCGGGTATCGGGACGTGCTA; value = -0.0627 z-score
Strand = TTAGGTATCCTACTGATTTAGTGCTAG; value = 0.374 z-score
Strand = TCATTTATGCACTCTCTAACTGTGCTA; value = 1.44 z-score
Strand = TCAGATTTCGGGACTGGATTAGTGCTA; value = 1.42 z-score
Strand = TTAGATTCCAGTTTCGTTTAGTGCTAG; value = 7.37 z-score
Strand = GTTGCTCTCCGGGGTCTGTGAGTGCTA; value = 0.272 z-score
Strand = CTCCCATTATATTTTAATCAGTGCTAG; value = 1.58 z-score
Strand = GACGGTATCGTTTTCGGGACGTGCTAG; value = 3.48 z-score
Strand = TCATCTCTGGTCTTTGTACTGTGCTAG; value = 1.61 z-score
Strand = TTCAGTTTTCCTCTGTCATTGTGCTAG; value = 3.03 z-score
Strand = TCAAACATCCCAATGGCACTGTGCTAG; value = 0.299 z-score
Strand = GACGGTTTCGTGTATCGGGACGTGCTA; value = 4.06 z-score
Strand = GCAGTTGTCGTTCAAGGCTGGTGCTAG; value = 0.0598 z-score
Strand = AACGAACTGGGGACTGGAGACGTGCTA; value = -0.331 z-score
Strand = GACGATCTCAGTTTCAAGACGTGCTAG; value = 0.654 z-score
Strand = TTAGCTCTCCTACTGCTTTAGTGCTAG; value = 1.12 z-score
Strand = TATGTTCACTATTTAAGACCGTGCTAG; value = 0.901 z-score
Strand = TTTTAAAATGGACACTGTACAGTGCTA; value = -0.778 z-score

Sample 4
Target: Protein C-ets-1 (ETS1, Homo sapiens, UniProt P14921, residues 1-441, full length assumed)
Technique: protein-binding microarray
Molecule type: double-stranded DNA, one strand shown
Sample: in vitro
Concentration: not given
Notes: k-mer, scored over probes, only values ≥0.25
Reading: higher = stronger binding
Measurement: E-score
Construct (chain): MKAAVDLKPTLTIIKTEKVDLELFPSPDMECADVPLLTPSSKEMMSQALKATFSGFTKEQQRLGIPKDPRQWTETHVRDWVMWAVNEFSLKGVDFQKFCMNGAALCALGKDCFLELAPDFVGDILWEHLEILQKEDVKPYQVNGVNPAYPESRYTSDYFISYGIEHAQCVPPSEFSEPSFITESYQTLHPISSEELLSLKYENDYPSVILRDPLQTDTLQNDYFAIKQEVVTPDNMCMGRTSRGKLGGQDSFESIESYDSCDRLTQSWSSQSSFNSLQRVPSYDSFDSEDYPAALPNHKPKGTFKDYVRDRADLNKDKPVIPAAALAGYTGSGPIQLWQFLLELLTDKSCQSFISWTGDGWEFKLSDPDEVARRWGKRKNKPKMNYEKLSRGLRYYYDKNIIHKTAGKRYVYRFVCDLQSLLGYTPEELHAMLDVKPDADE
Strand = ACAGCGGA; value = 0.306
Strand = CGGGGAAC; value = 0.334
Strand = CACATCCG; value = 0.487
Strand = CGGACGGC; value = 0.279
Strand = GGCCGGGA; value = 0.264
Strand = GGAAACTA; value = 0.344
Strand = ATTCTTCC; value = 0.304
Strand = CAGACCGG; value = 0.357
Strand = ATGTTTCC; value = 0.427
Strand = AGACGGAT; value = 0.374
Strand = ACTTCCTA; value = 0.442
Strand = CATATCCG; value = 0.473
Strand = GGATACCC; value = 0.316
Strand = ATGAGGAA; value = 0.295
Strand = GCAGCGGA; value = 0.31
Strand = AGGACGTC; value = 0.281

Sample 5
Target: Sal-like protein 4, full length isoform B (SALL4, Homo sapiens, UniProt Q9UJQ4-2, residues 1-616)
Technique: universal PBM
Molecule type: double-stranded DNA, one strand shown
Sample: in vitro
Concentration: not given
Notes: 8-mer, flanks averaged, mean of replicates
Reading: higher = stronger binding
Measurement: E-score
Construct (chain): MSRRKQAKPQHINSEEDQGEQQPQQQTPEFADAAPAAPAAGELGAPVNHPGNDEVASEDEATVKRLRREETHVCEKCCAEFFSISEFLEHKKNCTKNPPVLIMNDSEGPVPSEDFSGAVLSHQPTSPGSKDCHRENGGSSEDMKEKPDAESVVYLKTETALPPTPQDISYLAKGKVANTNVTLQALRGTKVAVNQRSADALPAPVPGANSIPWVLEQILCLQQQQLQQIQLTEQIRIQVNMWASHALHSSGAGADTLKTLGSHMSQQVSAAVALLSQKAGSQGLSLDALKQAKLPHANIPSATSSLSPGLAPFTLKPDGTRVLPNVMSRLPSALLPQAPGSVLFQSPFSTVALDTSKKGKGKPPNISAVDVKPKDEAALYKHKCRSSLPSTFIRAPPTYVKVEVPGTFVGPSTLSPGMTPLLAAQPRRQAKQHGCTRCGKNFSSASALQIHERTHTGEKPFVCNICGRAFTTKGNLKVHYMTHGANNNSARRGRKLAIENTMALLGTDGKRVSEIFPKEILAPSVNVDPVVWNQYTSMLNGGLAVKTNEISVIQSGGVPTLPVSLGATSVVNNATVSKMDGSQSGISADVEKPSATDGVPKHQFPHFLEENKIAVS
Strand = AGACCAAT; value = 0.0899
Strand = ATTCGCTA; value = 0.0584
Strand = CGGTTCCA; value = -0.243
Strand = ATCTCACA; value = 0.135
Strand = CGCTTCAA; value = 0.0384
Strand = CATCCAAA; value = 0.00466
Strand = CGAAGAGC; value = -0.143
Strand = ACTCGATC; value = -0.116
Strand = CAAACTTA; value = 0.175
Strand = GCATGGCC; value = -0.137
Strand = CGGTTGGA; value = -0.209
Strand = CATGCAGA; value = -0.0602
Strand = TCAGCGGA; value = -0.199
Strand = AGCAAGGG; value = -0.121
Strand = AGCCTCGG; value = -0.338
Strand = GGAAGGAA; value = -0.0929
Strand = CTTCGGTC; value = -0.134
Strand = CGCTAGAC; value = -0.155
Strand = ACATTTTA; value = 0.349
Strand = CACGGGCG; value = -0.335
Strand = ATCGGCTC; value = -0.247
Strand = CACTGGTC; value = -0.226
Strand = ACTCCTAA; value = -0.0218
